Published values pooled from the literature.
Lines come from different studies, so protocols differ. Numbers after ± are the reported error. ≈ marks a conversion by molar mass, not a printed value.

| SMILES | assay | system | setting | how to read | measurement | result |
| --- | --- | --- | --- | --- | --- | --- |
| C[C@@H]1O[C@@H](OC[C@H]2O[C@@H](Oc3c(-c4ccc(O)c(O)c4)oc4cc(O)cc(O)c4c3=O)[C@H](O)[C@@H](O)[C@@H]2O)[C@H](O)[C@H](O)[C@H]1O | UPLC-MS/MS | Wistar rat, microcirculation dysfunction model, plasma | oral, 100 mg/kg Salvia miltiorrhiza stem-leaf extract FT | – | MRT(0-inf) | 28 ± 32.9 h |
| CC(C)[C@H](N)C(=O)NCCCS(=O)(=O)O | – | human, both sexes | oral, 265 mg, immediate-release tablet, from urinary recovery | – | oral bioavailability | ~52% |
| Cn1c(-c2ccc(C(N)=O)cc2F)nnc1C(C)(C)Oc1c(F)cc(Cl)cc1F | – | young non-Japanese subjects, plasma | oral, 50 mg single dose, day 1 | – | AUC(0-inf) mean | 8740 ng·h/mL |
| CS(=O)(=O)c1ccc2c(c1)C(=O)CCc1ccccc1C(=O)N2 | nephelometry | aqueous buffer | 30 min, pH 6.5 | – | kinetic solubility | > 100 µg/mL |
| CCCOc1ccc([C@H]2CNC(=O)N2c2ccc3[nH]cnc3c2)cc1 | – | non-elderly adults, fasted, plasma | oral, 20 mg twice daily, day 11, oral solution, geometric mean | – | AUC(0-12h) | 120 ng·h/mL |
| CC1(C)C(/C=C/C=C/C=C/C=C2\N(CCCCS(=O)(=O)O)c3ccc4ccccc4c3C2(C)C)=[N+](CCCCS(=O)(=O)[O-])c2ccc3ccccc3c21 | integrating sphere | human serum | 1 h, room temperature, excitation 780 nm | – | fluorescence quantum yield | 7.76 ± 0.59% |
| CCc1oc2ccc(OC)cc2c1C(=O)c1cc(Br)c(O)c(Br)c1 | – | Sprague-Dawley rat, intestine microsomes | 1 µM, pH 7.4, together with: NADPH | – | intrinsic clearance | 6.5 ± 1.4 µL/min/mg |
| CC(C)NC[C@@H](C(=O)N1CCN(c2ncnc3c2[C@H](C)C[C@H]3O)CC1)c1ccc(Cl)cc1 | – | human, hepatic impairment Severe (Child-Pugh), plasma | oral, 100 mg single, geometric mean | – | AUC(0-t) | 843 ng·h/mL |
| CO/N=C1\C[C@]2(C[C@@H]3C[C@@H](C/C=C(\C)C[C@@H](C)/C=C/C=C4\CO[C@@H]5[C@H](O)C(C)=C[C@@H](C(=O)O3)[C@]45O)O2)O[C@H](/C(C)=C/C(C)C)[C@H]1C | HPLC, non-compartmental | Corriedale lambs, parasitized, plasma | oral, 0.2 mg/kg, together with: closantel 10 mg/kg oral | – | elimination half-life | 62.4 h |
| CCCCCCCCCCCCCNCC(=O)N(CC(=O)N(CCCC[N+](C)(C)C)CC(=O)N(CC[N+](C)(C)C)CC(=O)N(CC(N)=O)C1CCCCC1)C1CCCCC1 | preparative RP-HPLC C18 | water to acetonitrile gradient | 0.05% TFA in eluent | higher = more hydrophobic | acetonitrile at elution | 73.3% |
| CCN1C(=O)CNc2ncc(-c3ccc(-c4nc[nH]n4)nc3C)nc21 | – | human, plasma | oral, 25 mg once daily, first dose | – | AUC(0-12h) | 1230 ng·h/mL |
| CCNC(=O)c1cc2c(-c3cc(N4CCCS4(=O)=O)ccc3Oc3ccc(F)cc3F)cn(C)c(=O)c2[nH]1 | – | Sprague-Dawley rat, plasma | oral vs intravenous, 3 mg/kg oral, 1 mg/kg i.v. | – | oral bioavailability | 1.2% |
| Cc1nc2cccc(OCC(C)(C)C(=O)NC(C)C)c2c(N)c1C(=O)O | – | female Sprague-Dawley rat, plasma | oral food admix, 100 mg/kg/day, day 7, 90-day dietary study | – | AUC(0-24 h) | 1170 ng·h/mL |
| CC(C)[C@H](NC(=O)[C@@H]1CCCN1C(=O)[C@H](CCCNC(=N)N)NC(=O)[C@H](CS)NC(=O)[C@H](Cc1c[nH]c2ccccc12)NC(=O)[C@H](CCCNC(=N)N)NC(=O)[C@@H](Cc1ccccc1)NC(=O)[C@H](Cc1c[nH]cn1)NC(=O)[C@H](CCC(=O)O)NC(=O)[C@H](CS)NC(=O)[C@H](CS)NC(=O)[C@H](CCCCN)NC(=O)[C@@H]1CC(=O)N[C@@H](CCCNC(=N)N)C(=O)N[C@@H]([C@@H](C)O)C(=O)N[C@@H](CC(=O)O)C(=O)N[C@H](Cc2ccc(O)cc2)C(=O)N1)C(N)=O [technetium-99m labelled] | – | C57 mouse, female, B16/F1 melanoma, lung | intravenous, 2 h, together with: NDP-MSH 10 µg co-injected | – | tissue uptake | 1.18 ± 0.4 %ID/g |
| C[C@]12CC[C@@H]3c4ccc(O)cc4CC[C@H]3[C@@H]1C[C@@H](O)[C@@H]2O | GC-MS | breast cancer women on NSAI, serum | vaginal, 0.03 mg, 4 h, day 0 | – | mean serum concentration | 0.0283 ng/mL |
| O=c1[nH]c(=O)c(Cc2cccc(C(F)(F)F)c2)c([C@H]2CC[C@H](c3ccccc3)CC2)[nH]1 | – | mouse, both sexes | NOAEL, day 28, 28-day GLP toxicology study | – | AUC(0-24) | 36500 ng·h/mL |
| CCCCC/C=C/C(=O)CCc1ccc(O)c(OC)c1 | – | human ileostomy patients, ileal effluent | oral, 5 g TU-100, 4 h, no β-glucuronidase treatment | – | amount recovered, maximum | 1250 ng |
| O=C1Nc2cc(F)cc(F)c2C(=O)CCc2ccccc21 | nephelometry | aqueous buffer | 30 min, pH 6.5 | – | kinetic solubility | 50 to 100 µg/mL (≈ 174 to 348 µM) |
| CC1=C2C[C@H]3[C@@H](CC[C@@H]4C[C@H](NS(C)(=O)=O)CC[C@@]43C)[C@@H]2CC[C@@]2(C1)O[C@@H]1C[C@H](C)CN[C@H]1[C@H]2C | – | patients, plasma | oral, 160 mg daily, day 22, cycle 1 | – | AUC(0-24) | 8300 ng·h/mL |
| CCCC[C@H](NC(=O)CN1CCN(CC(=O)O)CCN(CC(=O)O)CCN(CC(=O)O)CC1)C(=O)N[C@H]1CC(=O)NCCCC[C@@H](C(N)=O)NC(=O)[C@H](Cc2c[nH]c3ccccc23)NC(=O)[C@H](CCCNC(=N)N)NC(=O)[C@@H](Cc2ccccc2)NC(=O)[C@H](Cc2c[nH]cn2)NC1=O [indium-111 labelled] | – | B16/F1 melanoma-bearing C57 mouse, female | intravenous, dose not given, 2 h, together with: L-lysine co-injection | – | urinary excretion | 76.8 ± 5.35% |

| SMILES | assay | system | setting | how to read | measurement | result |
| --- | --- | --- | --- | --- | --- | --- |
| N=C(N)NC(=O)c1cnn(-c2cccc3ncccc23)c1C1CC1 | – | human liver S9 | 1 µM, together with: hydralazine 50 µM, no NADPH | – | CLint | 4.8 ± 0.685 mL/min/kg |
| Oc1ccc(C(c2ccc(O)cc2)(C(F)(F)F)C(F)(F)F)cc1 | item: free compound | Hsd:Sprague Dawley rat male, plasma | oral gavage, 110 mg/kg single dose | – | elimination (k10) half-life | 2.36 h |
| O=C(Nc1c(Cl)cncc1Cl)c1ccc(OC(F)F)c(OCC2CC2)c1 | – | human adults, plasma | topical, 0.3% cream once daily, 14 days | – | elimination half-life | 96 h |
| COc1cccc(N2CCN(C3=Nc4c(F)cccc4[C@H](CC(=O)O)N3c3cc(C(F)(F)F)ccc3OC)CC2)c1 | UHPLC-MS/MS | healthy women, plasma | intravenous infusion, 480 mg single dose, 60 min infusion, HPβCD formulation | – | elimination rate constant | 1.59e-05 ± 4.25e-06 s⁻¹ |
| CS(=O)(=O)Nc1ccc(C(=O)O[C@@H](Cc2c(Cl)c[n+]([O-])cc2Cl)c2ccc(OC(F)F)c(OCC3CC3)c2)cc1OCC1CC1 | – | human, plasma | inhaled, 1600 µg once daily, day 7, single-dose dry powder inhaler | – | tmax | 2 h |
| O=C(O)[C@H](c1ccccc1Cl)N1CCc2sccc2C1 | HPLC-MS/MS | feline citrate plasma | 6 h, -80 °C, storage stability | – | deviation from nominal | 5% |
| CN[C@@H]1[C@H](O)[C@H](NC)[C@H]2O[C@]3(O)[C@H](O[C@@H]2[C@H]1O)O[C@H](C)C[C@H]3NC(=O)Cc1cc(Cl)c(C)cn1 | glutathione conjugation | human liver S9 | 100 µM, 2 h, pH 7.4, together with: glutathione 0.2 mM | – | parent remaining | 93.5% |
| S=C(NCCCc1c[nH]cn1)NCCCN(Cc1ccc(Cl)c(Cl)c1)c1ccc(Br)cn1 | – | male C57BL/6 mice, plasma | intraperitoneal, 30 mg/kg, 2 h | – | plasma concentration | 2870 ng/mL |
| CCCCN1C(=O)C(CC(C)C)NC(=O)C12CCN(Cc1ccc(Oc3ccccc3)cc1)CC2.Cl (stereo not shown) | – | male rat | oral, 30 mg/kg | – | oral bioavailability | 1.3% |
| Cc1nc(-c2ccc(OCC(C)C)c(C#N)c2)sc1C(=O)O | – | adults with gout, plasma | oral, 80 mg, together with: verinurad 2.5 mg | – | AUC(0-24) | 6360 ng·h/mL |
| Cc1c(C(=O)NN2CCCCC2)nc(-c2ccc(Cl)cc2Cl)n1-c1ccc(OS(=O)(=O)CCC(F)(F)F)cc1 | LC-MS/MS | cynomolgus monkey 1, plasma | intravenous infusion, 0.03 mg/kg, 90 min, total concentration mid-point of PET | – | plasma concentration | 0 nM |
| COCCNCC(O)Cn1c2ccc(Cl)cc2c2cc(Cl)ccc21 (stereo not shown) | – | 0.1 M sodium acetate with 0.01% Triton X-100 | pH 5.5 | – | maximum solubility | 100 µM |
| COc1cc(Nc2ncc3c(n2)-c2ccc(Cl)cc2C(c2c(F)cccc2OC)=NC3)ccc1C(=O)O | – | children, UGT1A1 intermediate or poor metabolizers, plasma | oral, 80 mg/m2, day 4 | – | trough concentration | 2060 ± 300 nM |
| O=S(=O)(c1cc(F)c(O)c2ncccc12)N1CCCC1 | – | rat Sprague-Dawley male, brain | oral, 10 mg/kg, 4 h | – | free concentration | 35 nM |
| CC[C@H](C)[C@H](NC(=O)[C@H](CCC(N)=O)NC(=O)[C@H](Cc1c[nH]cn1)NC(=O)[C@H](C)NC(=O)[C@H](CC(C)C)NC(=O)[C@H](CCCCN)NC(=O)[C@H](CCC(N)=O)NC(=O)[C@@H](NC(=O)[C@@H](NC(=O)[C@@H]1CSSC[C@H](NC(=O)CNC(=O)[C@H](Cc2ccccc2)NC(=O)[C@H](CO)NC(=O)[C@H](CCCNC(=N)N)NC(=O)[C@H](CC(C)C)NC(=O)CNC(=O)[C@H](CCC(N)=O)NC(=O)[C@H](Cc2ccccc2)NC(=O)[C@H](CC(N)=O)NC(=O)[C@H](CC(N)=O)NC(=O)[C@H](CCSC)NC(=O)[C@H](CO)NC(=O)[C@H](CCC(N)=O)NC(=O)[C@H](CCCNC(=N)N)NC(=O)[C@@H](N)Cc2ccc(O)cc2)C(=O)N[C@@H](CCCNC(=N)N)C(=O)N[C@@H](Cc2ccccc2)C(=O)NCC(=O)N[C@@H]([C@@H](C)O)C(=O)N1)[C@@H](C)O)C(C)C)C(=O)N[C@@H](Cc1ccc(O)cc1)C(=O)N[C@@H](CCC(N)=O)C(=O)N[C@@H](Cc1ccccc1)C(=O)N[C@H](C(=O)N[C@@H](CC(=O)O)C(=O)N[C@@H](CCCCN)C(=O)N[C@@H](CC(=O)O)C(=O)N[C@@H](CCCCN)C(=O)N[C@@H](CC(=O)O)C(=O)N[C@@H](CC(N)=O)C(=O)N[C@H](C(=O)N[C@@H](C)C(=O)N1CCC[C@H]1C(=O)N[C@@H](CCCNC(=N)N)C(=O)N[C@@H](CO)C(=O)N[C@@H](CCCCN)C(=O)N[C@H](C(=O)N[C@@H](CO)C(=O)N1CCC[C@H]1C(=O)N[C@@H](CCC(N)=O)C(=O)NCC(=O)N[C@@H](Cc1ccc(O)cc1)C(N)=O)[C@@H](C)CC)C(C)C)[C@@H](C)O | – | human, male, plasma | intravenous infusion, 15 ng/kg/min daily, 7 days, day 1 | – | AUC(0-10h) | 0.272 ± 0.0573 ng·h/mL |
| Nc1nc2c(ncn2COCCO)c(=O)[nH]1 | – | excised rabbit cornea | 1 mM, 3 h, pH 7.4, together with: BCH 5 mM | – | Papp | 2.03 ± 0.42 ×10⁻⁶ cm/s |
| CC1(C)CCc2c(-c3ccc(O[11CH3])cc3F)cc(C(N)=O)nc2O1 | – | female cynomolgus monkey, arterial plasma | blocking condition | – | unbound fraction | 0.099 ± 0.011 |
| C=CC(N)CCC(=O)O (stereo not shown) | – | male Sprague-Dawley rat, plasma | oral, 10 mg/kg, formulation 9, together with: low-fat infant formula 1500 mg/kg | – | Cmax | 9090 ± 301 ng/mL |
| CCN1CCN(c2ccc(Nc3cc(N(C)C(=O)Nc4c(Cl)c(OC)cc(OC)c4Cl)ncn3)cc2)CC1 | LC-MS/MS | juvenile female Crl:WI(Han) rats, plasma | oral gavage, 0.3 mg/kg/day, postnatal day 17 | – | half-life | 4.21 h |
| CC1(C)C2CC[C@]1(C)C(=O)/C2=C/c1ccsc1 | – | human red blood cells | 10 to 300 µg/mL, 30 min | – | maximum hemolysis | < 14% |

For quick reference, copied from above:
| SMILES | assay | system | setting | how to read | measurement | result |
| --- | --- | --- | --- | --- | --- | --- |
| CCN1CCN(c2ccc(Nc3cc(N(C)C(=O)Nc4c(Cl)c(OC)cc(OC)c4Cl)ncn3)cc2)CC1 | LC-MS/MS | juvenile female Crl:WI(Han) rats, plasma | oral gavage, 0.3 mg/kg/day, postnatal day 17 | – | half-life | 4.21 h |
| CCCCCCCCCCCCCNCC(=O)N(CC(=O)N(CCCC[N+](C)(C)C)CC(=O)N(CC[N+](C)(C)C)CC(=O)N(CC(N)=O)C1CCCCC1)C1CCCCC1 | preparative RP-HPLC C18 | water to acetonitrile gradient | 0.05% TFA in eluent | higher = more hydrophobic | acetonitrile at elution | 73.3% |
| N=C(N)NC(=O)c1cnn(-c2cccc3ncccc23)c1C1CC1 | – | human liver S9 | 1 µM, together with: hydralazine 50 µM, no NADPH | – | CLint | 4.8 ± 0.685 mL/min/kg |
| CC(C)[C@H](N)C(=O)NCCCS(=O)(=O)O | – | human, both sexes | oral, 265 mg, immediate-release tablet, from urinary recovery | – | oral bioavailability | ~52% |
